Results collected from several papers.
Compare with care: the assays were run in different laboratories.
USP14: Ubiquitin carboxyl-terminal hydrolase 14 (USP14, Homo sapiens, UniProt P54578)
Rac GTPase-activating protein 1: Rac GTPase-activating protein 1 (Homo sapiens, UniProt Q9H0H5)

COC1=C(N2CCOCC2)C(=O)c2ccccc2C1=O  inhibition (USP14; enzyme activity, inhibitor; 17 µM): 22%
O=C(O)C1Nc2ccc(Br)cc2C2C=CCC12 (stereo not drawn)  inhibition (Rac GTPase-activating protein 1; enzyme activity, inhibitor, ADP detection; 10 µM): 79.2%
C=CC(=O)N1Cc2nc(-c3cc(-c4cc(Cl)cnc4Cl)c(F)cc3F)n(-c3ccncn3)c2C1  inhibition (Phosphatidylinositol 4-kinase type 2-alpha (PI4K2A, Homo sapiens, UniProt Q9BTU6); cell-free assay, inhibitor; 1 µM): 3.9%
C[Si](C)(C)C[C@H](CN)CC(=O)O  inhibition (GABAA receptor, rat; binding, radioligand binding; 250 µM, with: [3H]muscimol): 3%
COc1ccc(N(N=C2Sc3ccccc3C2=O)C(C)=O)cc1  inhibition (USP14; enzyme activity, inhibitor; 17 µM): 32%
CC(=O)C12NC(C)(C)CC1(C)C(=O)C1=C2c2c(c3c4n2C(C)(C)CC2=C4C4(CC(C)(C)NC(C)(C4)C2=O)CC3(C)C)C(=O)C(C)(C)N1 (single isomer, unassigned; (-))  inhibition (Sodium channel protein type 10 subunit alpha (SCN10A, Homo sapiens, UniProt Q9Y5Y9); sodium current, antagonist, whole-cell patch clamp; HEK293T cells; 10 µM, half-inactivated state (TP2)): 33%
C[Si]1(C[C@H](CN)CC(=O)O)CCCC1  inhibition (P2X receptor, rabbit; binding, radioligand binding; 70 µM, with: [3H]alpha,beta-methylene-ATP): -9%
Cc1cc(N2CCOCC2)nc2cc(Cl)ccc12  inhibition (Rac GTPase-activating protein 1; enzyme activity, inhibitor, ADP detection; 10 µM): 53.4%
CC1(C)C=C2C(=NN(c3ccccc3)C(N)=C2C#N)CO1  inhibition (USP14; enzyme activity, inhibitor; 17 µM): 4%
CCOC(=O)C1(C)C(Br)=C(Cl)C(=O)N1c1ccc(Cl)cc1 (stereo not drawn)  inhibition (Rac GTPase-activating protein 1; enzyme activity, inhibitor, ADP detection; 10 µM): 81%
CN(C)C/C=C/C(=O)Nc1ccc2nc(NCCCCCN(C)C)nc(NCCCCCCN(C)C)c2c1  inhibition (Histone-lysine N-methyltransferase SETD7 (SETD7, Homo sapiens, UniProt Q8WTS6); enzyme activity, inhibitor, radiometric; 10 µM): 24%
CC1=NNC(=O)/C1=N\Nc1ccccc1  inhibition (USP14; enzyme activity, inhibitor; 17 µM): 26%
CC(=O)c1ccc2c3c(cccc13)NC(C)=N2  inhibition (Rac GTPase-activating protein 1; enzyme activity, inhibitor, ADP detection; 20 µM): 26.5%
COc1ccc(C2NC([O-])=C(C#N)C(=O)C2[n+]2ccccc2)cc1 (stereo not drawn)  inhibition (USP14; enzyme activity, inhibitor; 17 µM): 48%
COc1ccc2c(c1)-c1nc(N)sc1CC2  inhibition (Rac GTPase-activating protein 1; enzyme activity, inhibitor, ADP detection; 10 µM): 82.3%

Excerpt of the above:
CN(C)C/C=C/C(=O)Nc1ccc2nc(NCCCCCN(C)C)nc(NCCCCCCN(C)C)c2c1  inhibition (Histone-lysine N-methyltransferase SETD7 (SETD7, Homo sapiens, UniProt Q8WTS6); enzyme activity, inhibitor, radiometric; 10 µM): 24%
